Measurements from different studies.
Each numbered part is a random draw from the data of one study; scales do not carry over between parts. Changes are numbered by the printed parent chain.

Block 1
Target: Ras GTPase-activating protein-binding protein 1, C-terminal RGG region (G3BP1, Homo sapiens, UniProt Q13283)
Sequence of UniProt Q13283 (whole entry, looked up): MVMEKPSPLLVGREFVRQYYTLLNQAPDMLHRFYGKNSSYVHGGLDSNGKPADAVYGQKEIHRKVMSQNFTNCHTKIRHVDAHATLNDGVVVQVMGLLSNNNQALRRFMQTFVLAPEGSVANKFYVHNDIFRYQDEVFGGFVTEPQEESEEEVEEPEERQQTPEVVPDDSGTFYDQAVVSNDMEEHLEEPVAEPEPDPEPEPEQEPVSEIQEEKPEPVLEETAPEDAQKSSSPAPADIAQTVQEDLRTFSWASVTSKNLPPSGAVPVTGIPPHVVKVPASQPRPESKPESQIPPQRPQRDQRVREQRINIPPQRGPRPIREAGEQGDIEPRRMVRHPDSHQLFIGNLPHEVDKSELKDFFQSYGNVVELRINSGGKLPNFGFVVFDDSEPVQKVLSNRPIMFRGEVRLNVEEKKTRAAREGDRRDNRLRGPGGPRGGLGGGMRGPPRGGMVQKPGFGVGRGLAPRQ
Method: RNA Bind-n-Seq
Molecule type: RNA
Sample: in vitro
Tested at: 1 µM
Setting: whole 134-nt RNA, ends assumed
Added: 150 mM KCl
Reference: input library
Reading: higher = stronger binding
All sequences stand within: GGGAGUUCUACAGUCCGACGAUC … UGGAAUUCUCGGGUGUCAAGG
Strand | log2 enrichment
AGUCCUGUGCUACACAUCGUAUGUACCGAAUCGGUUUUUUUGGUUUUUGGAAAAAGGAAAGUAUUAUGUUACGCCGUUCGGAUCUGCACU | -1.86
UUUAGACAGAAACAAGAAGCAACAGAGUCCCUUAAGUGCCAAGAGGAACUUCGAGAGCGCCUUCAUGAGGAGUCCAGGGCCAGAGAACAG | -0.95
UCACUUUAGAGGAGGAUCUGAUGGAUAUGGCAGUGGACGUGGAUUUGGGGAUGGCUAUAAUGGGUAUGGAGGAGGACCUGGAGGUGGCAA | -1.11
UGGCCCUGGUGGCAUGCGGGGAGGAAGAGGUGGCCUCAUGGAUCGUGGUGGUCCCGCUGGAAUGUUCAGAGGUGGCCGUGGUGGAGACAG | 2.1
AAGUCCUGUGCUACACAUCGUAUGUACCGAAUCGGGAAAAAAAGGGAAAGGGAGGGAAAGUAUUAUGUUACGCCGUUCGGAUCUGCACUU | 1.28
CCUCAAGUCCUGUGCUACACAUCGUAUGUACCGAAUCGGUUUUUGGAGGAGGAAAGUAUUAUGUUACGCCGUUCGGAUCUGCACUUCCAG | -0.702
GUCCUGUGCUACACAUCGUAUGUACCGAAUCGGGGAGGGGAAAAAAAGGGGUUUGGGGAAAGUAUUAUGUUACGCCGUUCGGAUCUGCAC | 2.15
CAAGUCCUGUGCUACACAUCGUAUGUACCGAAUCGGGUUGGGGUUGGGGUUGGGGAAAGUAUUAUGUUACGCCGUUCGGAUCUGCACUUC | 3.04
UGCAGACGGGGAACCUGCUGAACUGGGGCCGCCUGCGGAAGAAGUGCCCGUCCACGCACAGCGAGGAGGUGAGCGUGGCGACACUCGCCG | -1.76
AAGUCCUGUGCUACACAUCGUAUGUACCGAAUCGGGAAAAAAAGGGAAAGGGUGGGAAAGUAUUAUGUUACGCCGUUCGGAUCUGCACUU | 1.1
UCAAGUCCUGUGCUACACAUCGUAUGUACCGAAUCGGUGGUUUUUGGUUUUUGGAAAGUAUUAUGUUACGCCGUUCGGAUCUGCACUUCC | -1.05

Block 2
Target: CCND3, cyclin fold, Cln2 fusion (human)
Method: yeast growth competition, sequencing
Sample: yeast
Setting: weak parent motif
Reference: not given
Reading: higher = stronger binding
Parent: CDC25A docking peptide (human); PPHRRRLLFACSP
Change | normalised enrichment score
PPHRRRLLFVCSP [A10V] | 0.102
PPHRRRLLFACQP [S12Q] | 0.0755
PPHRRRNLFACSP [L7N] | 0.149
PPHRRRLLFAFSP [C11F] | 0.163
PPHRRRLLFLCSP [A10L] | -0.0409
PPHIRRLLFACSP [R4I] | 0.155
PPHRRMLLFACSP [R6M] | 0.227
PPHRYRLLFACSP [R5Y] | 0.0643

Block 3
Target: RING finger protein unkempt homolog, zinc fingers 1-6, GST-SBP tag (UNK, Homo sapiens, UniProt Q9C0B0, residues 30-357)
Method: RNA Bind-n-Seq
Molecule type: RNA
Sample: in vitro
Tested at: not given
Setting: RNA with constant flanks, human and mouse sites, ends assumed
Reference: input RNA pool
Reading: higher = stronger binding
All sequences stand within: GGGAGUUCUACAGUCCGACGAUC … CAACAGAGGAUUGAGCAUCA
Target sequence (chain): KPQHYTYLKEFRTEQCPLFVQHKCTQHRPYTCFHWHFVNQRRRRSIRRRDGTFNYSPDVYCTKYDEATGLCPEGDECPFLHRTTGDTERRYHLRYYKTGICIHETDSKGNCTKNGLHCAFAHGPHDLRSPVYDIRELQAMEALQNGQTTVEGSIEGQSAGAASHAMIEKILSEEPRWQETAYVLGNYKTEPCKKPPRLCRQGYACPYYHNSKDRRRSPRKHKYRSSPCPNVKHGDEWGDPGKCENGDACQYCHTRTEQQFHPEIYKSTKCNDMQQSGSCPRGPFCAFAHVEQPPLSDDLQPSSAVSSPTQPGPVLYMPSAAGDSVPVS
Strand | bound/input enrichment [ratio]
UAGUGACAUGGCCUUUGGGGACAGUACAUGAUUUCUCAUAAUUUGAAUUCAUAGUAGAUAUAGUUAAGGGAACAGCAGUCAGGUUAUGAAUCUUUUCCCAUUUUUCUUUUUAAGUAAAUU | 7.79
GCAACAAGUGAAGAAGAAGCUAAAUUUGGUGCCAGACGUUUAGCCCGUAGUCUGCAGAAACUAGGUUUUCAGGUCAUCUUCACAGAUUUUAAGGUGGUGAAUGUUUUGGCAGUGUGUAAC | 0.562
CAUGAUGUGCGAGGUGAUGCCUACCAUCAGCGAGGAUGGCCGGCGGGGCUCGGCGCUGGGCCCGGACGAGGCCGGCGGCGAGCUGGAGCGCCUCAUGGUCACGAUGCUCACAGAGCGCGA | 0.059
UUUCAUAUGAACUGCUGGAAAAAGUUAAAAACAACAACUUUUAAUGAUAAAAUUGACAAGGAUUUUCUACAAGGAAUCUGUCUCACUCCCGAUUGUGAGGGAAUCAUUUCUAAGAUUAUC | 0.133
UUACGUGUUGGUGCUGAUAAUCAUGUGCUACCCUUGGACUGUGUUACUCUUCAGACAUUUUUAGCUAAGUGUUUGGGACCUUUUGAUGAAUGGGAAAGCAGACUUAGGGUUGCAAAAGAA | 0.359
UCAACAUUAGGUUAUAGUGACACUGUGAGCUUUGCUAUGGAAGUGAGUCCUUGGAGUUGUCUUCAGAAGCAAGCAGCAUGGGGGCGGAGUGUGGUUGACUUUUUUCUGGUGAUAACACAG | 0.453
AAAGAACAGGUUUUAGAACCUAUGCUAAAUGGAACAGAUAAAACACCAGCAUUAAUUUCUGAUUAUAAAGAAUAUCAUACUGACACAACUGUGAAAUUUGUGGUGAAAAUGACUGAAGAG | 0.219
ACGACAUUGCGACAGCGCAGAAAGCCAGUGUUCCACCUGUCCCACGAGGAGCGUGUCCAACAUAGGAACAUUAAAGACCUUAAGCUGGCCUUCAGCGAGUUCUACCUCAGUCUCAUCCUG | 0.125
CUGCUGUUCUUUACUUUGGGAUUGCUUAUACAUUUUGUGUUCUUCGCCUCCAUCUUUGACAUUUAUUUUACAUCUCCUUUGGUUCAUGGAAUGACUCCUCAGUUUACACCAUUGCCUCCU | 0.474
AACGCCAUGAAUUCCUUUGUUUAAUUUUUAAGCUCUUUGCCAAUAUUCCAUUUCUCUAGAAUGUUUAUCCUAAGCACUUGUUUGUCAGCCCUCUCAUACUAUGAACAUAUGGGUAGAGAG | 1.51
UGAAAGACUACCUAUGGUAUGACUUCACUUAUAUGAAGCGUCCGGAAGAAAGUUGGGAAUCCACGUGUUGAACUUACCCUCUCAGAGCUCCAAGAUAUGGCAGCUAGGCAACAGCAGCAG | 0.203

Other studies, line by line
Molecule | target | test | system | setting | how to read | measurement | value
PhoQ, residues 284 288 289 292 302 303 SCEHLI | PhoP, residues 12 14 15 18 19 NQFFI (Escherichia coli, UniProt P23836) | Sort-seq, measured: YFP reporter | E. coli | PhoQ-PhoP variant library, added: 10 µM Mg2+ | reference: high Mg2+ state, higher = stronger signaling | fold induction | 7.19

Some of these lines once more (block 2):
Change | normalised enrichment score
PPHRRRLLFLCSP [A10L] | -0.0409
PPHIRRLLFACSP [R4I] | 0.155
PPHRRMLLFACSP [R6M] | 0.227
